Experimental data collected from several papers.
Each numbered part is a random draw from the data of one study; scales do not carry over between parts.

Block 1 — technique: universal PBM; molecule type: double-stranded DNA, one strand shown; sample: in vitro; tested at: 600 nM; direction: higher = stronger binding
Target: Sal-like protein 4, full length isoform A (SALL4, Homo sapiens, UniProt Q9UJQ4, residues 1-1053)
Chain of UniProt Q9UJQ4 (whole entry, looked up): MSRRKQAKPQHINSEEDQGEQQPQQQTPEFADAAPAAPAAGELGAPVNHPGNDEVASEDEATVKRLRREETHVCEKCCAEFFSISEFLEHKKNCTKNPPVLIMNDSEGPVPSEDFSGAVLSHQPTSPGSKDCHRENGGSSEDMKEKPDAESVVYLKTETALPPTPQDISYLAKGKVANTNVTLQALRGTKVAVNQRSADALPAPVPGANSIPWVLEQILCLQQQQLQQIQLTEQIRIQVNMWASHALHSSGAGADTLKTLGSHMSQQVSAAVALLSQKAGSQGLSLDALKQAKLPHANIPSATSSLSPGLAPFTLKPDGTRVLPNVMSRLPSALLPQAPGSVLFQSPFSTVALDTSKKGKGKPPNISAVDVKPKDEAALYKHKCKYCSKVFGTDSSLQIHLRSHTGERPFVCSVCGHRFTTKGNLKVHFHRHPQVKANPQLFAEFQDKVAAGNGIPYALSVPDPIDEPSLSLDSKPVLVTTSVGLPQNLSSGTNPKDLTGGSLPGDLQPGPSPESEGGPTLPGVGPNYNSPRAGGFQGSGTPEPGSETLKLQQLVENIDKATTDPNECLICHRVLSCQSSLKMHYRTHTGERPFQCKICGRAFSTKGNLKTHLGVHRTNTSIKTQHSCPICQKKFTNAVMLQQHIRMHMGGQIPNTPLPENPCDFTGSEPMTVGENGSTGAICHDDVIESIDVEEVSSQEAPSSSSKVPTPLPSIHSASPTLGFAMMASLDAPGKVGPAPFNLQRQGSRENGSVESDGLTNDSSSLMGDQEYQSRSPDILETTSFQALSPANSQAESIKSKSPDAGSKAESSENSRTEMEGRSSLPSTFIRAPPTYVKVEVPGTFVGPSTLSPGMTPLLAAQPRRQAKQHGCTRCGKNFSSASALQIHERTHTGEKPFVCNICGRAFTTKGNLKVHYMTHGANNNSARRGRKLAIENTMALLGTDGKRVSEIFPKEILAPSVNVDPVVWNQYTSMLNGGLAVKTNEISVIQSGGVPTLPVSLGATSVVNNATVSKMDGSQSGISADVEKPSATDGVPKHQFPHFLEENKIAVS
Setting: 8-mer, flanks averaged, mean of replicates
Strand	E-score
ACGATTCT	0.104
CGGTCTCC	-0.363
AAACGCTC	-0.0431
CAAGCTGC	-0.195
GGGAAAAA	0.107
AAGAGTAC	0.0644
AATACAAT	0.309
GACTAGCC	-0.168
AACCGTGT	-0.0626
CCCCGACC	-0.366
CATGACCC	-0.183
GATTAGGC	-0.0795
ACTGGCCT	-0.157
AATCAACC	-0.0347
ACCACCAG	-0.165
AATGCCAT	0.148
ATGTCGCA	0.00123
GCAAACCA	0.0962
AGTCCTGG	-0.322
AACAAGGC	-0.0885
CCGGAAGA	-0.0908
TAATGCGA	0.235
GTCGGGTA	-0.197
CCAATCGA	-0.0818
ACCATAAC	0.247

Block 2 — technique: RNA Bind-n-Seq; molecule type: RNA; sample: in vitro; tested at: 365 nM; relative to: no-protein control; direction: higher = stronger binding
Target: RNA binding protein fox-1 homolog 2, RRM domain, GST-SBP tag (RBFOX2, Homo sapiens, UniProt O43251-10, residues 100-194)
Setting: natural RNA segment, single round, ends assumed
All sequences stand within: GGGAGUUCUACAGUCCGACGAUC … UGGAAUUCUCGGGUGCCAA
Target sequence (chain): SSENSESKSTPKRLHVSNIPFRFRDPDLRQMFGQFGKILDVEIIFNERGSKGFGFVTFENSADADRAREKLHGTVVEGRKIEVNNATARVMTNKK
Strand	RBNS enrichment (R)
GGGCAGUACUGUCAGAAAUUUCUUUGAGCUGUGAGAUGGAUUUAUUUUUAAAUGCUACUUUGUAAAGGUGACCUUUAAAAAAUAAAAGGAAAAUAAAGAAUGUUAGUUUC	2
AGUCCCAGCUGAGGCACGAUAAUUGCUUGAACCCGGGGGGUGGAGGUUGCAGUGAGCUGAGAUUGCACCACUGUACUCCAACCUGGGCGACAGAGCAAGACUGUGUCUCA	0.336
UGCCCGCCAUGCAUCCUUGAUGUUUGCCGCCUGGCGGCUGAGCCCUUAGCCUCGCUGUAGAGACUUCUGUCGCCCUGGGUAGAGUUUAUUUUUUUGAUGGCUAAGCUGUU	0.588
CAAGAGAAGUUAGAGGAGAAUUAAUAUAUUUCGUGCAAAAGUACUACAAACUUAAGUGUAUGUGCUAAAACUAAAUGUAUGUAACAUUUUUUUUUUAGCAGCGCCUUUGC	0.576
CCUGUGGUCCCACUGCGCAGGGCACAGCCACCUCAGCCACUCCCAGGCUGGACCACACGCUAACCUCCUGAGUGGUUCAGCUGCGUCUGGUCUGGUCAGGGUCCUGCUGC	0.355
CUUAAGUGGCAUUAAACAUUUGAGAGCUAACUAUAUUUUUAUAAGACUACUAUACAAACUACAGAGUUUAUGAUUUAAGGUACUUAAAGCUUCUAUGGUUGACAUUGUAU	0.597
GCUAAUGUUAGGGCUUAAUUUUCUCAAAGCCUGACCUUUCAAAUCCAUGAUGAAUGCCAUCAGUCCCUCCUGCUGUUGCCUCCCUGUGACCUGGAGGACAGUGUGUGCCA	0.701
CAUAAGCUUUGAAUCCUGUAGUUACAGUGGCAUAAAGGACUGACAAAACCUGGAUAAGGAAAAACCUUUUUUUUCUAUGAAUUUUUUUUGUUUUUUAGGGGAAAGGGAUU	0.733

Block 3 — technique: RNA Bind-n-Seq; molecule type: RNA; sample: in vitro; tested at: 200 nM; setting: whole 134-nt RNA, ends assumed; with: 150 mM LiCl; relative to: input library; direction: higher = stronger binding; each molecule: 7-deaza-guanosine replaces G
Target: Ras GTPase-activating protein-binding protein 1, full length (G3BP1, Homo sapiens, UniProt Q13283)
Chain of UniProt Q13283 (whole entry, looked up): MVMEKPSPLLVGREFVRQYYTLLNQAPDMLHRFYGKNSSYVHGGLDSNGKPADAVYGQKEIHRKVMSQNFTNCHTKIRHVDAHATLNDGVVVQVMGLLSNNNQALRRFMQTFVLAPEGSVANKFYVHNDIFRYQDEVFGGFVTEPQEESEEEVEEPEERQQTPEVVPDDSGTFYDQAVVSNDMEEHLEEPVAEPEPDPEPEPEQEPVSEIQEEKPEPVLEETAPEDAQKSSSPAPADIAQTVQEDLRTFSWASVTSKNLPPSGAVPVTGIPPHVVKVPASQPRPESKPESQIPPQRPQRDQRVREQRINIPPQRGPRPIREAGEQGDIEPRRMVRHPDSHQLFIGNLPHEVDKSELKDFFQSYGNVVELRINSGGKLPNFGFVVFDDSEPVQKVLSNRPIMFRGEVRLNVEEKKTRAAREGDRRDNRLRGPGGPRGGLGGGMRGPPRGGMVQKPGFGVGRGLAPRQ
All sequences stand within: GGGAGUUCUACAGUCCGACGAUC … UGGAAUUCUCGGGUGUCAAGG
Strand	log2 enrichment
CUCAAGUCCUGUGCUACACAUCGUAUGUACCGAAUCGGGGAGGGAGGGAGGGGAAAGUAUUAUGUUACGCCGUUCGGAUCUGCACUUCCA	-0.539
AAGUCCUGUGCUACACAUCGUAUGUACCGAAUCGGGAAAGGGUUUUUUUGGGUGGGAAAGUAUUAUGUUACGCCGUUCGGAUCUGCACUU	-0.954
UAAUUAUGUUUUAUUUUCUUUAAUUGCAGGACUUCAUAGACCUCACGUUGUCGAAGACUCAACGAAAGACUCCAACCGUUAUUCAUAAAC	0.318
AGUCCUGUGCUACACAUCGUAUGUACCGAAUCGGGAAAAGGGAAAAGGGGAAAAGGGAAAGUAUUAUGUUACGCCGUUCGGAUCUGCACU	-0.407
AAGUCCUGUGCUACACAUCGUAUGUACCGAAUCGGUUUUUUUGGAAAAAGGAAAGGAAAGUAUUAUGUUACGCCGUUCGGAUCUGCACUU	-2.27
GUCCUGUGCUACACAUCGUAUGUACCGAAUCGGUUUUUGGUUUUUUUGGUUUUUUUGGAAAGUAUUAUGUUACGCCGUUCGGAUCUGCAC	-1.16
UAACUUUAGAGGAGGAUCUGAUGGAUAUGGCAGUGGACGUGGAUUUGGGGAUGGCUAUAAUGGGUAUGGAGGAGGACCCGGAGGUGGCAA	-0.255
AGUCCUGUGCUACACAUCGUAUGUACCGAAUCAAAUUUUUAAAUUUUUAAAUUUAAAAAAGUAUUAUGUUACGCCGUUCGGAUCUGCACU	-2.79

Block 4 — technique: RNAcompete; molecule type: RNA; sample: in vitro; tested at: 20 nM; setting: 7-mer, probes averaged, single round; relative to: mean of 7-mers; direction: higher = stronger binding
Target: PABPC1L2, full length, GST fusion (mouse, UniProt A0ABA7IW68)
Residues (chain): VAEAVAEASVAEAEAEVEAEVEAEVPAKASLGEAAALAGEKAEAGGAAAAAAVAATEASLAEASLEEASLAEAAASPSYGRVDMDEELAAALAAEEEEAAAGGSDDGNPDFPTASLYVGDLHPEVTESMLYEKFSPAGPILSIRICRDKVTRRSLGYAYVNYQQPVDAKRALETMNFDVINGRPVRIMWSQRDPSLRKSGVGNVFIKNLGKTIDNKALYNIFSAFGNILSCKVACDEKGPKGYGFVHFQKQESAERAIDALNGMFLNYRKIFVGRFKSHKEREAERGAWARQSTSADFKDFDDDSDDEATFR
Strand	7-mer Z-score
UGGCCUA	-0.144
AAGCACU	0.2
AAGAUGC	0.323
UCUAGGC	-0.05
UAGUUCA	-0.287
GUAUCCC	-0.358
CUAACAG	-0.0863
CAAUGUG	-0.0554
AGUGAUU	-0.144
GCGCAAU	-0.0373
CGCGGAU	-0.17
GGUCGCA	-0.139
AUUGCAC	-0.19
CCUUGGU	-0.24
GCAUCUA	0.00617
GGAACUA	-0.0627
CGCCCAU	-0.342
CCCAGCC	-0.331
UCGCUCG	-0.38
AGUUAGG	0.0261
ACAGCCG	-0.164

For quick reference, copied from above (block 3):
Strand	log2 enrichment
GUCCUGUGCUACACAUCGUAUGUACCGAAUCGGUUUUUGGUUUUUUUGGUUUUUUUGGAAAGUAUUAUGUUACGCCGUUCGGAUCUGCAC	-1.16
AGUCCUGUGCUACACAUCGUAUGUACCGAAUCGGGAAAAGGGAAAAGGGGAAAAGGGAAAGUAUUAUGUUACGCCGUUCGGAUCUGCACU	-0.407
AGUCCUGUGCUACACAUCGUAUGUACCGAAUCAAAUUUUUAAAUUUUUAAAUUUAAAAAAGUAUUAUGUUACGCCGUUCGGAUCUGCACU	-2.79
AAGUCCUGUGCUACACAUCGUAUGUACCGAAUCGGGAAAGGGUUUUUUUGGGUGGGAAAGUAUUAUGUUACGCCGUUCGGAUCUGCACUU	-0.954
UAAUUAUGUUUUAUUUUCUUUAAUUGCAGGACUUCAUAGACCUCACGUUGUCGAAGACUCAACGAAAGACUCCAACCGUUAUUCAUAAAC	0.318
